Experimental data of several laboratories.
Lines come from different studies, so protocols differ. “And” joins repeats or separate records; there may be more than shown. ± gives the spread as reported.

Cc1cc(C)c(CNC(=O)c2cc(Cl)c3c(c2C)O[C@@](C)([C@H]2CC[C@H](N(C)C)CC2)O3)c(=O)[nH]1
patients with TEAE (refers to: Hypertension; human patients; oral, 200 mg once daily, 1 day onset day 14): 4.2%

CC(C(=O)NCC(=O)NCC(CNC(=O)CNC(=O)C(C)N1CCN(CC(=O)[O-])CCN(CC(=O)[O-])CCN(CC(=O)[O-])CC1)(CNC(=O)CNC(=O)C(C)N1CCN(CC(=O)[O-])CCN(CC(=O)[O-])CCN(CC(=O)[O-])CC1)CNC(=O)CNC(=O)C(C)N1CCN(CC(=O)[O-])CCN(CC(=O)[O-])CCN(CC(=O)[O-])CC1)N1CCN(CC(=O)[O-])CCN(CC(=O)[O-])CCN(CC(=O)[O-])CC1.[Gd+3].[Gd+3].[Gd+3].[Gd+3] (stereo not shown)
lanthanide tissue concentration (cynomolgus monkey, liver; dose not given, day 58, PK group): 0.43 ± 0.13 nmol/g

COc1cc2[nH]c(C)c(-c3ccc(N4CCN(C)CC4)nc3)c(=O)c2cc1Cl
Papp (PAMPA; pH 7.4): < 5 ×10⁻⁶ cm/s

CNCc1ccc(-c2[nH]c3cc(F)cc4c3c2CCNC4=O)cc1
constipation incidence (patients; oral, 600 mg twice daily, grade 5): 0%

Cc1cc(-c2nccc3c2ccn3CC(=O)Nc2ccc(-c3cnccn3)cn2)ccn1
subjects with Wheezing TEAEs (human; SAD part, single 7 mg dose): 16.7%

CNC(=O)c1ccc(-c2cnc3ncc(Cc4ccc5ncccc5c4)n3n2)cc1F
bilirubin increase incidence (all grades) (CTCAE v4.0, any causality; human hepatocellular carcinoma patients; oral, 600 mg twice daily, expansion cohort at RP2D): 18%

CCC(CC)C(=O)Oc1cccc(C(O)CCN)c1.O=CO (stereo not shown)
ERG a-wave amplitude (scotopic ERG; BALB/cJ mice; intraperitoneal, 10 mg/kg, 0.5 h dark adaptation, added: 10,000 lx photobleach, 10 min): 0 µV

O=C(N[C@H](Cc1c[nH]c2ccccc12)C(=O)Nc1ccncc1)c1ccc(-c2ccc(F)c(Cl)c2)cc1F
concentration (Swiss Webster mouse, female, heart; oral, 50 mg/kg, 8 h, 20% HPβCD vehicle): 9.25 µM

O=C1CC[C@H](N2Cc3cc(N4CCN(CC5CCN(c6ccc([C@@H]7c8ccc(O)cc8CC[C@@H]7c7ccccc7)cc6)CC5)CC4)ccc3C2=O)C(=O)N1
Clast (human, plasma; oral, 200 mg, 49.5 h, added: dabigatran etexilate 75 mg): 120 ng/mL

Cc1ccc2ccc(C(=O)O)c(O)c2n1
pKa (acidic): 5.5

NC1(C(=O)N[C@@H](CCO)c2ccc(Cl)cc2)CCN(c2nc[nH]c3nccc2-3)CC1
incidence of Diarrhoea (metastatic CRPC patients; 400 mg b.i.d., grade 3 to 4, treatment-related, added: enzalutamide 160 mg daily): 0%

Cc1ccc(Sc2ccccc2N2CCNCC2)c(C)c1
participants with TEAE (refers to: Nausea; healthy adult women; oral, 10 mg daily, 12 days): 16.7%

CCN1CCN(Cc2ccc(NC(=O)c3ccc(C)c(NC(=O)c4cncc(-c5cccs5)c4)c3)cc2C(F)(F)F)CC1
AUC(0-inf) (C57BL/6 mice, epithelial lining fluid; intraperitoneal, 30 mg/kg): 9750 ng·h/mL

O=C(CCCCCCC(=O)Nc1ccc(CC[18F])cc1)NO
tissue uptake (athymic nu/nu male mice, LNCaP xenograft, blood; intravenous, 2 h): 0.7 ± 0.1 %ID/g

COc1ccc(C[C@@H](C)[C@@H](C)Cc2ccc(OC)c(OC)c2)cc1OC
Cmax (beagle dog female, plasma; oral, 300 mg/kg/day, day 28): 2180 ± 483 ng/mL

CC(F)(F)c1cc(F)ccc1-c1sc2cc(O)ccc2c1Oc1ccc(/C=C/C(=O)O)cc1
Tlast (human, serum; oral, 200 mg once daily, cycle 1 day 28, fasted, median): 24 h

CC(C)(C(=O)N1CCOc2c(C#N)cncc2C1)C(F)F
subjects with adverse event (refers to: Vomiting; human; oral, 10 mg, CSF pharmacokinetic cohort): 16.7%

CNC(=O)c1cc(Oc2ccc(NC(=O)Nc3cc(C(C)(C)C)nn3-c3ccc4ncccc4c3)c(F)c2)ccn1
patients with adverse events (refers to: any AESI, worst grade ≥2; human patients; oral, dose not given, medium Cmax subgroup, cycles 1-2): 20%

COc1ccc2c(=O)n(C)c(-c3ccccc3)nc2c1
tissue/plasma ratio (Sprague-Dawley rat, male, spleen; oral, 30 mg/kg, 2 h; reference: spleen over plasma): 1

CO[C@@H]1[C@H](OC(=O)N2CC(CCN3CCOCC3)C2)CC[C@]2(CO2)[C@H]1[C@@]1(C)O[C@@H]1CC=C(C)C
prothrombin time (humans; subcutaneous, 0.2 mg twice weekly for 4 weeks, day 28; reference: baseline): 0 ± 0.4 s

Cc1ccc([C@@H]2O[C@H](CO)[C@@H](O)[C@H](O)[C@H]2O)cc1Cc1ccc(-c2ccc(F)cc2)s1
urinary magnesium excretion change (Japanese type 2 diabetes patients; 200 mg, day 15, 24 h urine collection; reference: baseline): 5.28 mg

Cc1cc(-c2nnc(N)nc2-c2ccc(F)cc2)cc(Cl)n1
patients with immune-mediated AE (refers to: psoriasiform dermatitis; IO-naive mCRPC patients, male; oral, dose not given, treatment-related, grade 1): 0%

COc1cc(N2CCC3(CCN(C)CC3)CC2)ccc1Nc1ncc(Cl)c(Nc2ccccc2P(C)(C)=O)n1
Q/F (population PK model; human; oral, final model): 15.5 L/h

Cc1nc(-c2cnc(NC(C)C)n(C)c2=O)ccc1Oc1ccnc(-c2cnn(C)c2)c1
Cmax (Beagle dog, male, plasma; oral, 30 mg/kg, crossover study, mean): 7290 ng/mL

C[C@@H](Nc1cc(F)cc(F)c1)c1cc(C(=O)N(C)C)cc2c(=O)cc(N3CCOCC3)oc12
related serious adverse events (refers to: Vomiting; advanced solid tumour patients; oral, dose not given, dose expansion): 5%

Cc1c2oc3c(C)ccc(C(=O)N[C@@H]4C(=O)N[C@H](C(C)C)C(=O)N5CCC[C@H]5C(=O)N(C)CC(=O)N(C)[C@@H](C(C)C)C(=O)O[C@@H]4C)c3nc-2c(C(=O)N[C@@H]2C(=O)N[C@H](C(C)C)C(=O)N3CCC[C@H]3C(=O)N(C)CC(=O)N(C)[C@@H](C(C)C)C(=O)O[C@@H]2C)c(N)c1=O
maximum plasma concentration (LC-MS; children with cancer, plasma; dose not given, 4 h): 16.1 µg/L

Cc1nccc2c1c(=O)n(C)c1cc(OC[C@@H](N)CC(C)C)c(C#N)cc21
concentration (rat, plasma; intrathecal, 1 µg, 30 min): 0.0037 µM

O=C1NC(=O)C(Cc2ccc(O)cc2)S1 (stereo not shown)
maximum haemolysis (sheep erythrocytes; 1 h, pH 7.5): 8.3%

O=C(O)CCC(=O)O.[2H]C([2H])([2H])Oc1cc(C)c2[nH]ccc2c1CN1CC[C@@H](C2CC2)C[C@H]1c1ccc(C(=O)O)cc1
subjects with proteinuria TEAE (multiple ascending dose; healthy Chinese subjects; 100 mg twice daily): 37.5%

COc1cc(Nc2ncc3c(n2)-c2ccc(Cl)cc2C(c2c(F)cccc2OC)=NC3)ccc1C(=O)O
decreased white cell count incidence (patients; oral, dose not given, grade 4, any attribution, added: pembrolizumab): 17%

Cc1noc2c1-c1ccccc1C(c1ccc(Cl)cc1)=N[C@H]2CC(N)=O
AUC(0-last) (Crl:CD1(ICR) mice, female, brain; intravenous, 5 µmol/kg): 4.16 µM·h

CCN1/C(=C/C(C)=O)Sc2ccc(F)cc21
systolic blood pressure change (cynomolgus monkey; oral, 30 mg/kg, 6 h post-dose; reference: pre-dose): 102 ± 3.8%

COc1ncc(-c2nc3c(n2C(C)C)[C@H](c2ccc(Cl)cc2)N(c2cc(Cl)cn(C)c2=O)C3=O)c(OC)n1
median half-life (human patients, plasma; oral, 50 mg, high-dose arm, cycle 2 day 1): 15 h

Cc1ccc2c(c1)sc(-c1ccc(N(C)C)cc1)[n+]2C
brightness (PBS; free dye): 36 M⁻¹ cm⁻¹

COc1ccc([C@@H](O)c2cc(-c3ncnc4cc(N5CCOCC5)ccc34)c(F)cc2Cl)nn1
metabolism nutrition disorder TEAE (locally advanced rectal cancer patients; 150 mg, added: capecitabine and radiotherapy): 50%

COc1cc2c3c(n(CCCN4CCOCC4)c(=O)c2cc1OC)-c1cc2c(cc1C3=O)OCO2
Cmax (beagle dogs, female, plasma; intravenous infusion, 215 mg/m^2, 1 h infusion): 772 ng/mL

C[C@@H]1COCCN1c1cc(C2([S@](C)(=N)=O)CC2)nc(-c2cc[nH]c3nccc2-3)n1
Constipation incidence (Japanese advanced solid tumour patients; oral, 240 mg twice daily, any grade): 33.3%

CC(=O)Oc1ccccc1C(=O)O
mean blood pressure (male Hartley guinea pigs, anaesthetized; intravenous, 10 mg/kg group, baseline before infusion): 32 ± 0.1 mmHg

COc1cc(/C=N\NC(=O)c2ccc(Br)cc2)ccc1OC(=O)c1cccs1
maximum haemolysis (sheep erythrocytes; 1 h, pH 7.5): 2.4%

CC(C)(C)c1ccc(O)c(CN(Cc2cc(C(C)(C)C)ccc2O)C2CCC(NC(N)=O)CC2)c1 (stereo not shown)
recovery (mouse brain; 5 ng/g, 3 months, -20 °C, long-term storage): 99.8 ± 1.14%

COc1cc(N)c(Cl)cc1C(=O)NC1CCN(CCCOc2ccc(F)cc2)CC1OC (stereo not shown)
mean blood pressure (male Hartley guinea pigs, anaesthetized; intravenous, 0.3 mg/kg group, baseline before infusion): 34 ± 0.1 mmHg

CC(=O)N(C)[C@H]1CCN(C(=O)c2cnc3c(c2)C[C@](C)(c2ccc(F)cc2)N3)C1
adverse event duration (refers to: abdominal discomfort; human; oral, 15 mg once daily): 1 days

CCO[C@H]1CCN(Cc2c(OC)cc(C)c3[nH]ccc23)[C@H](c2ccc(C(=O)O)cc2)C1
incidence free thyroxine increase (PNH patients, active haemolysis; oral, 25 mg, treatment): 0%

Cc1ccc(O)c(-n2nc3ccccc3n2)c1
daily dermal uptake (human, both sexes; topical, dose not given, sunscreen, age 2-3 years, mean): 1190 ng/kg body weight/day

O=C(Nc1nc2cccc(-c3ccc(CN4CCS(=O)(=O)CC4)cc3)n2n1)C1CC1
patients with Cardiac disorders (rheumatoid arthritis patients; oral, 100 mg twice daily, 4 weeks, TEAE regardless of relatedness): 0%

CC[C@H](C)[C@H](NC(=O)CN)C(=O)N[C@@H](CC(C)C)C(=O)N[C@@H](C)C(=O)N[C@@H](C)C(=O)N[C@H](C(=O)N[C@@H](CCCCN)C(=O)N[C@@H](C)C(=O)N[C@H](C(=O)N[C@@H](C)C(=O)N[C@@H](CCCCN)C(=O)N[C@@H](C)C(=O)N[C@@H](C)C(=O)NCC(N)=O)[C@@H](C)CC)[C@@H](C)CC
mean residue ellipticity (circular dichroism at 222 nm; 30% TFE; 100 µM): -12600 deg cm2/dmol

Cc1cc(C#N)cc(C)c1Oc1nc(Nc2ccc(C#N)cc2)nc(N)c1Br
maximum supersaturated concentration (FaSSIF; no polymer): 95 µg/mL

CN(C)C(=O)c1cc2cnc(Nc3ccc(N4CCNCC4)cn3)nc2n1C1CCCC1
AUC(0-last) (human, moderate renal impairment, plasma; oral, 400 mg, geometric mean): 7860 ng·h/mL

COc1nc(-c2cc(C)c(N[C@@H](C)c3cc(F)cc(F)c3)nn2)ccc1-n1cnc(C)c1
AUC(0-t) (cynomolgus monkey, male, plasma; oral, 2 mg/kg): 1620 ng·h/mL

C=CCN1CC(=O)N2[C@@H](Cc3ccc(O)cc3F)C(=O)N(Cc3cccc(N4CC(N5CCN(CC)CC5)C4)n3)C[C@@H]2N1C(=O)NCc1ccccc1
treatment-related decreased appetite (advanced solid tumour patients; oral, 120 mg twice daily, grade ≥3, dose-escalation): 0%

N#Cc1ccc2c(c1)[C@H]1CCCN(C(=O)c3ccc4[nH]cnc4c3)[C@H]1C2
maximum ACTH level (human; 80 mg, day 15): 17.8 pmol/L

Cc1c(-c2ccc(N3CCc4cccc(C(=O)Nc5nc6ccccc6s5)c4C3)nc2C(=O)O)cnn1CC12CC3(C)CC(C)(C1)CC(OCCNCC[C@H](O)CO)(C3)C2
plasma concentration (anaesthetized male beagle dog; iv infusion, 0.3 mg/kg/min, 90 min): 0.4 ng/mL and 2.49 ng/mL

Cc1nn(C)cc1S(=O)(=O)NC(=O)c1ccc(-n2ccc(OCC(C)(C)C(F)(F)F)n2)nc1N1C[C@@H](C)CC1(C)C
pKa (basic): < 2

CCOc1c([C@H](C)n2nc(C)c3c(N)ncnc32)cc(Cl)c(F)c1[C@@H]1CNC(=O)C1
LSM change in QRS interval (previously treated B-cell malignancy patients; oral, dose not given): ≤ 4.19 ms

CN1C(=O)[C@@H](NC(=O)c2nnc(Cc3ccccc3)[nH]2)COc2cccnc21
nasopharyngitis incidence (phase I multiple ascending dose; human, male and female; oral, 50 mg, 14 days): 25%

C[C@@]1(c2cc(NC(=O)c3ccc(C#N)cn3)ccc2F)C=CSC(N)=N1
dose-normalised AUC(0-inf) (elderly humans, both sexes, plasma; oral, 30 mg single dose): 84.9 ng·h/mL

CC(C)NCC(O)c1ccc(NS(C)(=O)=O)cc1 (racemic)
mean blood pressure (male Hartley guinea pigs, anaesthetized; intravenous, 1 mg/kg over 10 min, after infusion): 39 ± 0.3 mmHg

CNC(=O)c1ccc(-c2cnc3ncc(Cc4ccc5ncccc5c4)n3n2)cc1F
Constipation dose reduction/interruption (Japanese patients; oral, 400 mg, grade 3/4): 1%

A few entries again:
CCO[C@H]1CCN(Cc2c(OC)cc(C)c3[nH]ccc23)[C@H](c2ccc(C(=O)O)cc2)C1
incidence free thyroxine increase (PNH patients, active haemolysis; oral, 25 mg, treatment): 0%

Cc1ccc(O)c(-n2nc3ccccc3n2)c1
daily dermal uptake (human, both sexes; topical, dose not given, sunscreen, age 2-3 years, mean): 1190 ng/kg body weight/day

O=C(Nc1nc2cccc(-c3ccc(CN4CCS(=O)(=O)CC4)cc3)n2n1)C1CC1
patients with Cardiac disorders (rheumatoid arthritis patients; oral, 100 mg twice daily, 4 weeks, TEAE regardless of relatedness): 0%

CC[C@H](C)[C@H](NC(=O)CN)C(=O)N[C@@H](CC(C)C)C(=O)N[C@@H](C)C(=O)N[C@@H](C)C(=O)N[C@H](C(=O)N[C@@H](CCCCN)C(=O)N[C@@H](C)C(=O)N[C@H](C(=O)N[C@@H](C)C(=O)N[C@@H](CCCCN)C(=O)N[C@@H](C)C(=O)N[C@@H](C)C(=O)NCC(N)=O)[C@@H](C)CC)[C@@H](C)CC
mean residue ellipticity (circular dichroism at 222 nm; 30% TFE; 100 µM): -12600 deg cm2/dmol

Cc1cc(C#N)cc(C)c1Oc1nc(Nc2ccc(C#N)cc2)nc(N)c1Br
maximum supersaturated concentration (FaSSIF; no polymer): 95 µg/mL

CN(C)C(=O)c1cc2cnc(Nc3ccc(N4CCNCC4)cn3)nc2n1C1CCCC1
AUC(0-last) (human, moderate renal impairment, plasma; oral, 400 mg, geometric mean): 7860 ng·h/mL

COc1nc(-c2cc(C)c(N[C@@H](C)c3cc(F)cc(F)c3)nn2)ccc1-n1cnc(C)c1
AUC(0-t) (cynomolgus monkey, male, plasma; oral, 2 mg/kg): 1620 ng·h/mL
